Measurements of several laboratories.
Each numbered part is a random draw from the data of one study; scales do not carry over between parts.

Set 1
Target: Sal-like protein 4, full length isoform A (SALL4, Homo sapiens, UniProt Q9UJQ4, residues 1-1053)
Chain of UniProt Q9UJQ4 (whole entry, looked up): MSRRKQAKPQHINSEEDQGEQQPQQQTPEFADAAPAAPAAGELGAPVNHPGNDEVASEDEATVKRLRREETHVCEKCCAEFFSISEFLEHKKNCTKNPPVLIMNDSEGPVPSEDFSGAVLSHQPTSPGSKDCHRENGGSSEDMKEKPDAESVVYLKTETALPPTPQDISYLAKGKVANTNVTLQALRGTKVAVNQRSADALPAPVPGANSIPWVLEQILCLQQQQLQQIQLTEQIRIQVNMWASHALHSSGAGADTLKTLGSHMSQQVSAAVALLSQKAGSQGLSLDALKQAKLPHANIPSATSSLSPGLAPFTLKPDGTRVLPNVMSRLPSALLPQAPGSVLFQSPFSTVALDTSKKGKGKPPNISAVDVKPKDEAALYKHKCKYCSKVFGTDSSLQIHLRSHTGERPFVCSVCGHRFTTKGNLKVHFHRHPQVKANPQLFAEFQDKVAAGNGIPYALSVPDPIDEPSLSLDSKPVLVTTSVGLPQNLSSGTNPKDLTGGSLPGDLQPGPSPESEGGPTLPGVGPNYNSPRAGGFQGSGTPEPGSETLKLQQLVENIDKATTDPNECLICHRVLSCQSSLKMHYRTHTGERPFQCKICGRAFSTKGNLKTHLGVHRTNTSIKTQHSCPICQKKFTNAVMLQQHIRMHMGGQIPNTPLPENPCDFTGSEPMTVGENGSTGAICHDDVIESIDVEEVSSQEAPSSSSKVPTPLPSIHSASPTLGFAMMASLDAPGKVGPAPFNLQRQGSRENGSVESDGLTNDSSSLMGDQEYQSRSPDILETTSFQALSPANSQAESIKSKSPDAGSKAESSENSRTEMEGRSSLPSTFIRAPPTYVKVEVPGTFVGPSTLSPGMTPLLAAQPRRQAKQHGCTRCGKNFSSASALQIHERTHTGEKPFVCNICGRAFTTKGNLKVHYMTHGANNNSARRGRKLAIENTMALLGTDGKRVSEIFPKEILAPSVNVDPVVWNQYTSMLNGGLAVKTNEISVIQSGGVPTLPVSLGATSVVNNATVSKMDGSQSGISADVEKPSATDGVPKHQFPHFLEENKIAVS
Method: universal PBM
Molecule type: double-stranded DNA, one strand shown
Matrix: in vitro
Tested at: 600 nM
Notes: 8-mer, flanks averaged, mean of replicates
Reading: higher = stronger binding
`GTATGTGA` gave an E-score of 0.201.
`CGCACAGC` gave an E-score of -0.293.
The E-score of `ACGACATA` is reported as 0.104.
The E-score of `GAAGATTC` is reported as 0.0482.

Set 2
Target: Histone acetyltransferase KAT6A, winged helix 2, GST fusion (KAT6A, Homo sapiens, UniProt Q92794, residues 85-181)
Method: protein binding microarray
Molecule type: double-stranded DNA, one strand shown
Matrix: in vitro
Tested at: not given
Notes: 8-mer, flanks averaged, mean of 2 arrays, mostly near background
Relative to: not given
Reading: higher = stronger binding
Target sequence (chain): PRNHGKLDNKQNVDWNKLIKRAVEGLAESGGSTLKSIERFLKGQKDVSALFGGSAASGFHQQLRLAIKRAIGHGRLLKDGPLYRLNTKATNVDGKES
`ACTCAGCC` has an E-score of -0.0471.
`GTGTTAAC` has an E-score of 0.0559.
With `TACGACAA` the E-score was 0.0312.
`ATTGCATA` has an E-score of 0.0547.
For `AGATGGTA`, the E-score was -0.124.
`GAATGTGC` gave an E-score of -0.0116.

Set 3
Target: Prothrombin, mature alpha-thrombin (F2, Homo sapiens, UniProt P00734)
Method: aptamer microarray, sandwich
Molecule type: DNA with 2'F-ANA
Matrix: in vitro
Tested at: 200 nM
Notes: whole 15-mer aptamer, many near background
Together with: Cy3 exosite-II aptamer, 400 nM
Reading: higher = stronger binding
Oligonucleotide: GGTTGGTGTGGTTGG
`2'F-ANA at 1 3 6 7 9 14` — result for “mean fluorescence intensity”: 76.4 a.u.
For `2'F-ANA at 1 8 11 13`, “mean fluorescence intensity” read 199 a.u.
`2'F-ANA at 2 3 4 7 8 10 12 13 15`: “mean fluorescence intensity” 300 a.u.
For `2'F-ANA at 5 12 13 14`, “mean fluorescence intensity” read 44.7 a.u.
`2'F-ANA at 8 10 11 12`: “mean fluorescence intensity” 204 a.u.

Single results of other studies
With `PhoQ, residues 284 288 289 292 302 303 AQGLTV` the fold induction was 3.07 (PhoP, residues 12 14 15 18 19 QQAYL (Escherichia coli, UniProt P23836); Sort-seq, refers to: YFP reporter; E. coli; PhoQ-PhoP variant library, together with: 10 µM Mg2+; relative to: high Mg2+ state, higher = stronger signaling).

Some of these lines once more (set 2):
For `AGATGGTA`, the E-score was -0.124.
`GAATGTGC` gave an E-score of -0.0116.
